Measured values from different studies.
Numbered parts are unrelated; each lists some results of a single study.

Set 1
Target: RING finger protein unkempt homolog, zinc fingers 1-6, GST-SBP tag (UNK, Homo sapiens, UniProt Q9C0B0, residues 30-357)
Method: RNA Bind-n-Seq
Molecule type: RNA
Medium: in vitro
Concentration: not given
Setting: RNA with constant flanks, human and mouse sites, ends assumed
Baseline: input RNA pool
Reading: higher = stronger binding
Target sequence (chain): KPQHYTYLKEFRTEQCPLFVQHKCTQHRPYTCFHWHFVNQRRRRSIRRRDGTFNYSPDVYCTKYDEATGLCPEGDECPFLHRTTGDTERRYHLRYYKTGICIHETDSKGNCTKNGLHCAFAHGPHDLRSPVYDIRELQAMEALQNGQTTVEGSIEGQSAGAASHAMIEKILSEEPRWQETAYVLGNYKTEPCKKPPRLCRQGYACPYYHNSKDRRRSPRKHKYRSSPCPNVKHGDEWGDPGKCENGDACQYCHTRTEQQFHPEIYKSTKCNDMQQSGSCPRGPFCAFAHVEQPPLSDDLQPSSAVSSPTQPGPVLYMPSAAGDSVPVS
`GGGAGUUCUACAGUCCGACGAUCAAGCUUGGUGGGACAAUAGAUGACUGUGAGCUGGUGGAAGGCCUCGUUCUCACACAGAAAGUAGCAAAUUCUGGCAUAACAAGAGUUGAAAAGGCUAAGAUUGGGCUUAUUCAGUUUUGCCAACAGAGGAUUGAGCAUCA` has a bound/input enrichment of 0.471 ratio.
The bound/input enrichment of `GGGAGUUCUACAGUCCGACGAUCAAUGAGGCCUCACCCCUGGACCCCAUUACUGAGGAAGAUGAGAAAUCCGACCAGUCAGGUAGUAAGCUGCUCCCAGGCAAGAAGUCUUCAGAACGGCCUAGUCUCUUCCAGACAGACUUGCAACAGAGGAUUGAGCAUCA` is reported as 0.131 ratio.
For `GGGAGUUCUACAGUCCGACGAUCGAGCACAGCUCUACUCUGGUUACACGGAUCACCUUUGUUGUGCUAGAAUGGAAGCUACAUUUCUGGAAUGUGUGUACCCUGCUGGUGACUUUGCAGCCCCGCCUUGCCUGACCUCCCACCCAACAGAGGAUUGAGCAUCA`, the bound/input enrichment was 0.15 ratio.
For `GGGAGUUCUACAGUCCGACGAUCCUGAAAAACACAGAUAUCAAAGUUGUUGACUUUGGAAGUGCAACGUAUGAUGAUGAACAUCACAGUACUUUGGUGUCUACCCGGCACUACAGAGCUCCCGAGGUCAUUUUGGCUUUAGGUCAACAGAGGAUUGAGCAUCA`, the bound/input enrichment was 0.323 ratio.
`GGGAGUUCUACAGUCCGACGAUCGAUGAAAAGAUGAGCCCAACAAUUGGAAAACAAUUACUUAAGGGCUCCGCUGAUCCUCUAAAUAGUGCUUUCCAUUUGACCUACAACAUGGUUUUGAACUUACUACGUGUAGAAGAAAUUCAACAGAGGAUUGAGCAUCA` has a bound/input enrichment of 0.14 ratio.
`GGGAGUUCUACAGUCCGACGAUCAAAUAUAUAAAACUUCAGUGUAAAGGACAUGGUGAGUGCCCUACCACUGAGAAUACUGAGACCUUUAUUCGUCUGUGUGAGCGGUUUAAUGAAAGAAAUCCACCUGAACUUAUAGGUGUUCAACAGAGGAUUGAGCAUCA` gave a bound/input enrichment of 0.0733 ratio.
The bound/input enrichment of `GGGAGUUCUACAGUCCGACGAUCCAUAUUCAUUGGGCUGUUGUAUUCAGCCAGUCUCAUGCUUUCCCUGGGUCUUCACGGAUUGCUUUCCAAGCUGCCUUGUUGCGGGGUUGCUGCAGAGCAGCAACUGGACCUUUCCAGCUGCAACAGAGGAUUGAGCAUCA` is reported as 0.148 ratio.
With `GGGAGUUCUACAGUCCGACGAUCAACAAUAGUGGAAUGAAAUCACACAAGUGCAGGAAGUCUGGAAAAUUCUUCACGAUGACCUCAAGCCUGAGUGGGCAUCCGAGAGAUCAUGCUAGAGAGAAGCCCUAUCAAUGUACAAAGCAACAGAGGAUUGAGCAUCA` the bound/input enrichment was 0.154 ratio.

Set 2
Target: Ras GTPase-activating protein-binding protein 1, full length (G3BP1, Homo sapiens, UniProt Q13283)
Sequence of UniProt Q13283 (whole entry, looked up): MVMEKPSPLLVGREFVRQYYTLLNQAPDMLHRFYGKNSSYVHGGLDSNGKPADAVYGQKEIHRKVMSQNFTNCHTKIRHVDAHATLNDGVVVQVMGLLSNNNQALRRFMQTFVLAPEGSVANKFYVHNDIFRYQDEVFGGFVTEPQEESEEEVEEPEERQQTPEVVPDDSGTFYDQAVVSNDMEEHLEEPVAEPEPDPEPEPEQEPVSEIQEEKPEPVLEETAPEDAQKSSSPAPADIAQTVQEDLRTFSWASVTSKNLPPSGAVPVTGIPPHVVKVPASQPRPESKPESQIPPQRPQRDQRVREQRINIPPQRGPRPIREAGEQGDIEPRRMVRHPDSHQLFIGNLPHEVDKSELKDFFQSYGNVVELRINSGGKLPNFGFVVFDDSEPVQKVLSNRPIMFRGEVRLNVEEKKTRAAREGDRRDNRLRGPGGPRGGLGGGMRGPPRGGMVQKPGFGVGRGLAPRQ
Method: RNA Bind-n-Seq
Molecule type: RNA
Medium: in vitro
Concentration: 200 nM
Setting: whole 134-nt RNA, ends assumed
Added: 150 mM LiCl
Baseline: input library
Reading: higher = stronger binding
Library: 7-deaza-guanosine replaces G
`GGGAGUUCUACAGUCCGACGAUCUCAAGUCCUGUGCUACACAUCGUAUGUACCGAAUCGGAAAGGAGGAAAAAAAGGAAAGUAUUAUGUUACGCCGUUCGGAUCUGCACUUCCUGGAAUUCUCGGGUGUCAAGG` gave a log2 enrichment of -0.11.
The log2 enrichment of `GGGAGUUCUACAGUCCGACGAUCGUCCUGUGCUACACAUCGUAUGUACCGAAUCGGGGUUUGGGGUUUUUGGGGAAAGGGGAAAGUAUUAUGUUACGCCGUUCGGAUCUGCACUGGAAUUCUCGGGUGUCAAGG` is reported as -0.0894.
`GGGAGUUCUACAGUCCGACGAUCUCAAGUCCUGUGCUACACAUCGUAUGUACCGAAUCGGGAAAGGAAAGGGGAAAGGAAAGUAUUAUGUUACGCCGUUCGGAUCUGCACUUCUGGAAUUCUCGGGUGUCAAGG` gave a log2 enrichment of -0.649.
For `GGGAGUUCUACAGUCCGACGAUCCACAGACAACACGCACCCACACAGACACAGAGGGAAGGGGGUGGGAUGGGGACAGGGUGCACAGCAGGGCGGGGUAGGACCCCAGCCCCUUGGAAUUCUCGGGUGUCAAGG`, the log2 enrichment was -1.22.
`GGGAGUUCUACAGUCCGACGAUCCUGUGCUACACAUCGUAUGUACCGAAUCAAAUUUUUUUAAAUUUUUUUAAAUUUUUUUAAAAAAGUAUUAUGUUACGCCGUUCGGAUCUGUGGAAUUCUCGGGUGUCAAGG` has a log2 enrichment of -2.47.
`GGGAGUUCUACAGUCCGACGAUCUCAAGUCCUGUGCUACACAUCGUAUGUACCGAAUCGGAAAGGAAAAAAAGGAGGAAAGUAUUAUGUUACGCCGUUCGGAUCUGCACUUCCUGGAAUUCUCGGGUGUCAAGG` gave a log2 enrichment of 0.123.
With `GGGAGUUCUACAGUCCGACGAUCUCCUGUGCUACACAUCGUAUGUACCGAAUCGGGAAAAAAAGGGUUUUUGGGAAAAAGGGAAAGUAUUAUGUUACGCCGUUCGGAUCUGCAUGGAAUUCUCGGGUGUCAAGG` the log2 enrichment was -0.83.
The log2 enrichment of `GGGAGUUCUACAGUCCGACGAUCCUCAAGUCCUGUGCUACACAUCGUAUGUACCGAAUCGGUGGUUUUUGGUUUGGAAAGUAUUAUGUUACGCCGUUCGGAUCUGCACUUCCAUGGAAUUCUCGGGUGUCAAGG` is reported as 0.31.

Set 3
Target: Sal-like protein 4, full length isoform B (SALL4, Homo sapiens, UniProt Q9UJQ4-2, residues 1-616)
Method: universal PBM
Molecule type: double-stranded DNA, one strand shown
Medium: in vitro
Concentration: not given
Setting: 8-mer, flanks averaged, mean of replicates
Reading: higher = stronger binding
`AGGGTCCG` gave an E-score of -0.331.
For `AAGGACTC`, the E-score was 0.00377.
The E-score of `GTTTGCGA` is reported as 0.0783.
With `CCGTACTC` the E-score was -0.159.
For `ACGTAGCC`, the E-score was -0.088.
`ACCCGCTC` has an E-score of -0.276.
`CTTTTCTC` has an E-score of 0.0711.
With `AATATCGC` the E-score was 0.144.

Set 4
Cell line: HEK-293T
Observed: pseudovirus infection
Method: FDA-approved drug library screen
Organism: VSV pseudotyped with SARS-CoV-2 spike
Concentration: 10 µM
Time: 16 h
Baseline: vehicle-treated
With `COCCOC(=O)C1=C(C)NC(C)=C(C(=O)OC(C)C)C1c1cccc([N+](=O)[O-])c1` (centres unmarked) the GFP-positive cells was 108%.
The GFP-positive cells of `CO/N=C(\C(=O)N[C@@H]1C(=O)N2C(C(=O)O)=C(CSc3nc(=O)c(=O)[nH]n3C)CS[C@H]12)c1csc(N)n1` is reported as 77.4%.
With `CC(C)(C)NCC(O)COc1cccc2c1CC(O)C(O)C2` (centres unmarked) the GFP-positive cells was 74.6%.

Set 5
Target: Replicase polyprotein 1ab, nsp13 helicase (rep, Severe acute respiratory syndrome coronavirus 2, UniProt P0DTD1)
Mode: inhibitor
Concentration: 20 µM
`O=C(c1c2ccccc2cc2ccccc12)N1CCC(N2CCC[C@@H](C(=O)N3CCOCC3)C2)CC1` has an inhibition of 6.66%.
`Cn1c(=O)c2c(ncn2CC(=O)O)n(C)c1=O` has an inhibition of -2.21%.
For `C[N+](C)(C)[C@@H](Cc1c[nH]c(=S)[nH]1)C(=O)[O-]`, the inhibition was 2.86%.
`COc1ccc(S(=O)(=O)Nc2c(C)cc(C)cc2C)cc1` has an inhibition of 2.34%.
For `Nc1nccc(Oc2ccc(NC(=O)c3cn(COP(=O)(O)O)cc(-c4ccc(F)cc4)c3=O)cc2F)c1Cl`, the inhibition was 7.8%.
The inhibition of `O=C1NCCc2[nH]c(-c3ccncc3)cc21` is reported as 7.01%.
The inhibition of `CO[C@@H]1[C@H](OC(=O)/C=C/C=C/C=C/C=C/C(=O)O)CC[C@]2(CO2)[C@H]1[C@@]1(C)O[C@@H]1CC=C(C)C` is reported as 50.5%.
`O=C(c1cc(C2CC2)on1)N(C1CCCCC1)C1CCCCC1` gave an inhibition of 7.28%.
`c1coc(CNc2ncnc3[nH]cnc23)c1` gave an inhibition of 6.24%.
With `CCNCCCNCCCCNCCCNCC` the inhibition was -2.53%.
For `CCOC(=O)c1ccc(N(C)c2csc(-c3ccccc3)n2)cc1`, the inhibition was 12.7%.
With `O=C1c2ccccc2C(Cc2ccnc(F)c2)(Cc2ccnc(F)c2)c2ccccc21` the inhibition was 3.88%.
With `CC(=O)N[C@H]1[C@H]([C@H](O)[C@H](O)CO)OC(C(=O)O)=C[C@@H]1NC(=N)N` the inhibition was 0.69%.
The inhibition of `CCOC(=O)[C@H](Cc1ccccc1)NC(=O)c1cc(Cl)c(OCCN2CCN(C)CC2)c(Cl)c1O` is reported as -1.04%.
`CC1(N)CCN(c2cnc(-c3cccc(Cl)c3Cl)c(N)n2)CC1` has an inhibition of 9.32%.
`OCCn1cc(-c2cnc3nnn(Cc4ccc5ncccc5c4)c3n2)cn1` gave an inhibition of 9.78%.
`CCOC(=O)C1=C(C)NC(c2ccccc2)=C(C(=O)OCc2ccc([N+](=O)[O-])cc2)C1C#Cc1ccccc1` (centres unmarked) gave an inhibition of 1.53%.
`COc1ncc2cc(C(=O)Nc3cc(C(=O)NCc4cccc(Cl)c4)ccc3Cl)c(=O)[nH]c2n1` has an inhibition of -4.21%.
`O=C(O)CCCNC(=O)c1cccnc1` gave an inhibition of 2.23%.
The inhibition of `COc1cc(F)c(F)c(Nc2ccc(I)cc2F)c1NS(=O)(=O)C1(C[C@H](O)CO)CC1` is reported as -2.01%.
`Nc1nc2c(nc(Br)n2[C@@H]2O[C@@H]3COP(=O)(O)O[C@H]3[C@H]2O)c(=O)[nH]1` has an inhibition of 4.65%.
For `CN(C)c1ccc(/C=C2\CCCN=C2c2cccnc2)cc1`, the inhibition was 12.6%.
For `CCOc1ccccc1OCC1CNCCO1` (centres unmarked), the inhibition was -3.15%.
The inhibition of `O=c1cc[nH]c(=S)[nH]1` is reported as -3.72%.
`CC1(S(=O)(=O)O)CC(=O)c2ccccc2C1=O` (centres unmarked) gave an inhibition of 0.24%.

Set 6
Target: Replicase polyprotein 1ab, main protease (rep, Severe acute respiratory syndrome coronavirus 2, UniProt P0DTD1)
Observed: enzyme activity
Mode: inhibitor
Concentration: 20 µM
Setting: primary screen
`CNC(=O)ON(C(C)=O)C(=O)NC` gave an inhibition of 96.4%.
`CC1=C(CCC(=O)O)c2cc3[nH]c(cc4nc(cc5[nH]c(cc1n2)c(C)c5C(C)O)C(C)=C4C(C)O)c(C)c3CCC(=O)O` (centres unmarked) has an inhibition of 46.2%.
`CC(=O)Oc1ccccc1C(=O)Nc1ncc([N+](=O)[O-])s1` gave an inhibition of 113%.
For `[NH-]c1c[n+](N2CCOCC2)no1`, the inhibition was 73.9%.

For quick reference, copied from above (set 5):
For `C[N+](C)(C)[C@@H](Cc1c[nH]c(=S)[nH]1)C(=O)[O-]`, the inhibition was 2.86%.
`O=C(c1c2ccccc2cc2ccccc12)N1CCC(N2CCC[C@@H](C(=O)N3CCOCC3)C2)CC1` has an inhibition of 6.66%.
`OCCn1cc(-c2cnc3nnn(Cc4ccc5ncccc5c4)c3n2)cn1` gave an inhibition of 9.78%.
The inhibition of `CO[C@@H]1[C@H](OC(=O)/C=C/C=C/C=C/C=C/C(=O)O)CC[C@]2(CO2)[C@H]1[C@@]1(C)O[C@@H]1CC=C(C)C` is reported as 50.5%.
